Experimental data collected from several papers.
Each numbered part is a random draw from the data of one study; scales do not carry over between parts.

Block 1 — method: EMSA with sequencing; form: double-stranded DNA, one strand shown; sample: in vitro; concentration: 10 and 20 nM; reference: negative control set to 0; reading: higher = stronger binding
Target: Hepatocyte nuclear factor 3-alpha (Foxa1, Mus musculus, UniProt P35582, residues 1-468, full length assumed)
Sequence of UniProt P35582 (whole entry, looked up): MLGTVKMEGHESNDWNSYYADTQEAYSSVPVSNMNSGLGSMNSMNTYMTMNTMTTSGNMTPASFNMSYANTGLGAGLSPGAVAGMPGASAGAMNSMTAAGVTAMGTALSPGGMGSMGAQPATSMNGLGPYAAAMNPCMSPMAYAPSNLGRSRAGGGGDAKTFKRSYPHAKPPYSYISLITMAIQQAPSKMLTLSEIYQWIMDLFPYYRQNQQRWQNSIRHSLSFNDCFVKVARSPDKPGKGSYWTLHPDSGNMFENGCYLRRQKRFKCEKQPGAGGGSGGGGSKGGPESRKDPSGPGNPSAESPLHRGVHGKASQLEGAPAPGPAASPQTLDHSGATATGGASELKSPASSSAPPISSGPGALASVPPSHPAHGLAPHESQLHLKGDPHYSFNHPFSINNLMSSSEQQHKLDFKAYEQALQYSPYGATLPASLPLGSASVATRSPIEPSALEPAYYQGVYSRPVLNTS
Setting: whole designed probe, mean of two concentrations, ends assumed
Oligonucleotide | normalised bound fraction [ratio]
GTGAGCGGTGCCCATTGATGGGGAACGACAGTACATGTTTTAGGATTTTTGGACCACACAGTCTCTGTCACAATGACTCAGCTTTGCCATTGTAGCGTGCAAACAGCCACAAACCATATGCAAACAAATGTATGGAGGGTGTGGTCCAATAAAACTTTATTTACAAAAGCAGGAGGACAGTGGAGTTGGCTTGCAGACAGTCATTTGCAGAGCCCTGATTTTCACTGGGATCGTGGGGAC | 0.444
GTGAGCGGTGCCCATTGATGGGGAACTTCCTATCAGGCGAAGGCCGCCTTTCCTGGCCTCCCCCACAGGCCCGCCAGCGATTCGTCCTTACAAGGCTAGCCTCCACGGGCTGCCCTCTGTGTAAATAAAGCCACAGACTTCCGCCCACAGGTCGCCGCAGGTCCCGCCCGCAGCGCCGGGCCGCGGGGGAGGCGGGAACTGGTGCTACGGCCGCTACGCTTTCACTGGGATCGTGGGGAC | 0.469
GTGAGCGGTGCCCATTGATGGGGAACGGACACAGCCAGAGGCCATGAGTGCTCAGGAGTGCCATAAACTGTGATTTTGAGACTGATAAGGCCAGGCCTGGGTGTGTCTAAATAGCTTGTTGTTTGCCTTTTTATATTTGAGGCCTATAAAAAAATAGTGAGAAAATAGCAAGATGCCCAGGAGACAGGTGATCTGATTCAGCCAGGGGGTGGGAGGTGGTTTCACTGGGATCGTGGGGAC | 0.071
GTGAGCGGTGCCCATTGATGGGGAACATACTGGTATTACCCACCTCACTATTATGAAGTATAACATACAGCGTGCACAGCACAGTGTCTGGCCCATTGTAGTTGCTCAATAGCTTTTAGAGATTGCTTTTATGAGTTTGAGTCATCTTTGTGGTGAGGATTACAGACCCTGACCCCTCTACTTGAGGTAGAACCAAGTCTATGGTTTCTCAGCCTGGGCTTTCACTGGGATCGTGGGGAC | -0.0587

Block 2 — method: RNA Bind-n-Seq; form: RNA; sample: in vitro; concentration: 200 nM; setting: whole 134-nt RNA, ends assumed; added: 150 mM LiCl; reference: input library; reading: higher = stronger binding; each molecule: 7-deaza-guanosine replaces G
Target: Ras GTPase-activating protein-binding protein 1, full length (G3BP1, Homo sapiens, UniProt Q13283)
Sequence of UniProt Q13283 (whole entry, looked up): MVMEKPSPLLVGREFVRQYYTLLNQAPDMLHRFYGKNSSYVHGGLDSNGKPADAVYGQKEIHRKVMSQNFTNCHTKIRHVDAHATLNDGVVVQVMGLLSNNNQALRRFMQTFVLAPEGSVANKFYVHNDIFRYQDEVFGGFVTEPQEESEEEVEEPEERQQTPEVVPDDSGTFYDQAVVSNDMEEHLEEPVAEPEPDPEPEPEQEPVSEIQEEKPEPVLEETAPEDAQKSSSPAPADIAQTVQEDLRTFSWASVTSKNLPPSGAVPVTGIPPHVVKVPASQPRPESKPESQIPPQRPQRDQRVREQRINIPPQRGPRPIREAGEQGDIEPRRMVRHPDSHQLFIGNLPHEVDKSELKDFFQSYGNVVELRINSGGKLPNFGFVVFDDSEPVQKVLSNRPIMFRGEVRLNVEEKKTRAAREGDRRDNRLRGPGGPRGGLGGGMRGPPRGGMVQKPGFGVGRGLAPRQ
All sequences stand within: GGGAGUUCUACAGUCCGACGAUC … UGGAAUUCUCGGGUGUCAAGG
Oligonucleotide | log2 enrichment
UCAAGUCCUGUGCUACACAUCGUAUGUACCGAAUCGGGAAGGGAAGGGAAGGGGAAAGUAUUAUGUUACGCCGUUCGGAUCUGCACUUCC | -0.318
AGUCCUGUGCUACACAUCGUAUGUACCGAAUCGGGUUUUGGGUUUUGGGUUUUGGGGAAAGUAUUAUGUUACGCCGUUCGGAUCUGCACU | 0.00612
CACAGACAACACGCACCCACACAGACACAGAGGGAAGGGGUUGGGAUGGGGACAGAAAGCACAGCAGGGCGGGGUAGGACCCCAGCCCCU | -0.00919
AGUCCUGUGCUACACAUCGUAUGUACCGAAUCAAAUUUAAAUUUUUUUAAAUUUAAAAAAGUAUUAUGUUACGCCGUUCGGAUCUGCACU | -2.83
UGGGAGGUGGAUUUUGUUUAUUUUUUUAGCACAUUUCCAGGGGUGGGAAUUUUUUUUUAAUAUGUGUCAUGAAUAAAGUUGUUUUUGAAA | 0.0785
AGUCCUGUGCUACACAUCGUAUGUACCGAAUCGGCCCCCGGCCCCCGGGCCCCCGGGAAAGUAUUAUGUUACGCCGUUCGGAUCUGCACU | -0.516
CCUCAAGUCCUGUGCUACACAUCGUAUGUACCGAAUCGGUUUGGAGGAAAGGAAAGUAUUAUGUUACGCCGUUCGGAUCUGCACUUCCAG | -0.148
AAGUCCUGUGCUACACAUCGUAUGUACCGAAUCGGGGUUUGGGGUUUGGGGAGGGGAAAGUAUUAUGUUACGCCGUUCGGAUCUGCACUU | -0.123

Block 3 — method: RNA Bind-n-Seq; form: RNA; sample: in vitro; concentration: not given; reference: input RNA pool; reading: higher = stronger binding
Target: RING finger protein unkempt homolog, zinc fingers 1-6, GST-SBP tag (UNK, Homo sapiens, UniProt Q9C0B0, residues 30-357)
Sequence of UniProt Q9C0B0 (30-357, looked up): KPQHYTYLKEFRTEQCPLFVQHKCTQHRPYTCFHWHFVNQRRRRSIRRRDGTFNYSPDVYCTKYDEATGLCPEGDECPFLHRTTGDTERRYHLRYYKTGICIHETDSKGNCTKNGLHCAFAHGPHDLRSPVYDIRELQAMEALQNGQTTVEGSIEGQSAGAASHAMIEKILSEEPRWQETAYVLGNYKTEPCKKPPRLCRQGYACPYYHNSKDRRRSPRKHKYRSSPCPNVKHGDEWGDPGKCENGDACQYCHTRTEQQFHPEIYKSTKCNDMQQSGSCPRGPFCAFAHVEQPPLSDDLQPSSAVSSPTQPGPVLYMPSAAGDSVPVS
Setting: RNA with constant flanks, human-mouse chimeric sites, ends assumed
All sequences stand within: GGGAGUUCUACAGUCCGACGAUC … CAACAGAGGAUUGAGCAUCA
Oligonucleotide | bound/input enrichment
AAAGCCCAAGUAUUUUGAAAAAACUCGAACAGAUUUGACAAGGGUAGCCAGCUUGGAGUCUAGCAACUUUGCCAAUGGUUUACCAAUUUUGGGGGCUGUUUUUCUUUUCUUCUUUCAAAU | 0.36 ratio
AGAUUCCCCCUCCUGAGACCUCCUCCGAAGUUGGAGUCUCUUACAGAUGCCUCAUCCCCUGUUAGCGUUUUAGUUUGGACCACCCAGCCUUGGACGAUUCCCGCCAACCAGGCAAUUUGC | 0.821 ratio
AUGGAACAUUUCGAUGCGUCACUCAGUACCUAUUUCAAGGCCUUCCUGGGCCCCCGAGAUACAAGAGUAAAAGGAUGGUUCCUCCUGGACAAUUACAUCCCUACGUUUGUCUGUUCUGUU | 0.0825 ratio
GGUGGGGUGGUCAUUGCGCCAAUUGAGGCUGAUUUUCAUGAGUCGCCUUCAAAACUCUCGUGUAGGGUUGACACUGUGGGGGGGUGGGGGAUCCAGCUUAUUCUUUUAUUUUCAAGUCCA | 0.694 ratio
CUGAGGAUACCACUGAAGAGACCUUAAAAGAAUCAUUUGAGGGCUCUGUUCGUGCAAGAAUAGUCACUGAUCGGGAAAACUGGGUCCCCAAAGGGUUUGGUUUUGUAGACUUUAAUAGUG | 0.704 ratio
GUCAACAGCUGCCUCAACCCCAUCCUCUACGCCUUCCUGGAUGAGAACUUCAAGGCCUGCUUUAGAAAGUUCUGCUGUGCAUCUGCCCUGCACCGGGACGUGCAGGUGUCUGACCGCGUG | 0.359 ratio
GUGACUGGUGUUAAGAUUUACCCUCAGCAAAGAAGUGCAGUAGUCACCAUAAUUCCAUCUGUGGUGAGUGCCAGUCAGAUUGUGGAGCUGGUCCCAGACCUCAGUUUAGACAUGGGAACU | 0.243 ratio
AUCAAAUAUUUUGGGGACAUCAUUAGUGUGGGACAGAGACUGUUGCAAGGAGCUCGGAUCUUAGGGAUUCCUGUUAUCAUAACGGAACAAUACCCCAAAGGACUUGGCAGCACCGUUCAA | 0.171 ratio

Block 4 — method: RNA Bind-n-Seq; form: RNA; sample: in vitro; concentration: 365 nM; reference: no-protein control; reading: higher = stronger binding
Target: RNA binding protein fox-1 homolog 2, RRM domain, GST-SBP tag (RBFOX2, Homo sapiens, UniProt O43251-10, residues 100-194)
Setting: natural RNA segment, single round, ends assumed
All sequences stand within: GGGAGUUCUACAGUCCGACGAUC … UGGAAUUCUCGGGUGCCAA
Target sequence (chain): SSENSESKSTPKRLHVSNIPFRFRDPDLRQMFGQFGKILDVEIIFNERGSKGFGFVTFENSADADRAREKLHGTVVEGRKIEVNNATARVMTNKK
Oligonucleotide | RBNS enrichment (R)
GUAUUACAGAUGCCUUUUUUGUAGUUUUUUUUUUUUUUAUGUGAUCAAUUUUGACUUAAUGUGAUUACUGCUCUAUUCCAAAAAGGUUGCUGUUUCACAAUACCUCAUGC | 0.863
UGUACCCCUAUUGUUAAAGAUUUGUGUCCUCUCAUUCCCUCUCUUCCUCUUGUAAGUGCCCUUCUAAUAAACUUUUCAUGGAAAAGCUCCUGUGCCAGGAGCUCAGUCUG | 0.64
CCUGUAUAUCAUGGUAUCUGUGGGCAUAUGUCUGUUUCUUAUAAAGACACAUAUUUGUGUGUGUAUGUGUGUGUGUGUGUGUGUGUGUGUAUAAGCAUACAUGGGAAUUU | 4
ACUAAAAAGACAUGUUAGACUUUUUUUAAAAAAGCACUUAUGUUUUGAAAAUAGAAUAAAUAAUAAGAAUUUCCAAUUAAAUCAUGUCUGGUGCCAAUGUGCAAAACUUC | 0.55
UCAGCAUUAUCCUGCCAGACCUCGGGGAGGAUACCUGGGAGACAGAAGCCUCUGCACCUACUGUGCAGAACUCUCCACUUCCCCAACCCUCCCCAGGUGGGCAGGGCGGA | 0.232
CAGCUUGGGCUCUCCUGGCGCCCCGUAGCAUCGAGUGUCUUCUUUGUCUUCUUUCUCUCCUCACCCAACUCCCUUUGCCUCUCCCCAAACCGGGCCGCCAGGAUCCCUCC | 1.41
CUCCCUAGUAGUUGGGACUACAGGCGCCCGCCACCAUGCUCAGCUAAUUUUUUGUAUUUUUAGUAGAGACGGUUUCAUCGUGUUAGCCAGGAUGGUCUCGAUCUCCUGAC | 0.338
GAACCUCCAACAUGCCGAGCAGACGCAGGCCACAUUGCUCGGGGAACAGGACACCAGGGCGCUGUGCUAGCGGCCCGCAGACUUCACUUCUGGCUCCUGUGAGGGCACUG | 0.566

Some of these lines once more (block 4):
Oligonucleotide | RBNS enrichment (R)
UGUACCCCUAUUGUUAAAGAUUUGUGUCCUCUCAUUCCCUCUCUUCCUCUUGUAAGUGCCCUUCUAAUAAACUUUUCAUGGAAAAGCUCCUGUGCCAGGAGCUCAGUCUG | 0.64
